Published values gathered from unrelated publications.
A part holds a random share of what one study measured.

Sample 1 — technique: RNA Bind-n-Seq; form: RNA; sample: in vitro; concentration: 1 µM; notes: whole 134-nt RNA, ends assumed; added: 150 mM KCl; baseline: input library; direction: higher = stronger binding
Target: Ras GTPase-activating protein-binding protein 1, C-terminal RGG region (G3BP1, Homo sapiens, UniProt Q13283)
Chain of UniProt Q13283 (whole entry, looked up): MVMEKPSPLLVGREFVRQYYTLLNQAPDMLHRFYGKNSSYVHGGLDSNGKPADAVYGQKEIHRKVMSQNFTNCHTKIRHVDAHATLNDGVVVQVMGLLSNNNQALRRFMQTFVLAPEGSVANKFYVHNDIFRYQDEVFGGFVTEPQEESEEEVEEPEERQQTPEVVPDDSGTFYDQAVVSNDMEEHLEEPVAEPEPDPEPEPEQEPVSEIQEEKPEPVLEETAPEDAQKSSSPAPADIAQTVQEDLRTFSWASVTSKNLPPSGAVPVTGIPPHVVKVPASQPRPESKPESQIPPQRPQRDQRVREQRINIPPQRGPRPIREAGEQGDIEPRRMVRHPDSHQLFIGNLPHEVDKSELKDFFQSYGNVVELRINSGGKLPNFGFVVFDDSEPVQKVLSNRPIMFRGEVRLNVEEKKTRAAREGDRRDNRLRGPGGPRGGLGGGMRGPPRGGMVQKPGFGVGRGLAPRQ
Shared flanks, not repeated: GGGAGUUCUACAGUCCGACGAUC … UGGAAUUCUCGGGUGUCAAGG
Sequence | log2 enrichment
UGGCCCUGGUGGCAUGCGGGGAGGAAGAGGUGGCCUCAUGGAUCGUGGUGGUCCCGGUGGGAUGUUCAGAGGUGGCCGUGGUGGAGACAG | 2.54
CCUCAAGUCCUGUGCUACACAUCGUAUGUACCGAAUCGGGUGGGUGGGUGGGGAAAGUAUUAUGUUACGCCGUUCGGAUCUGCACUUCCA | 0.975
GCAGGAAGUAAAAACAAAUGGAAAUGCUUCGGAUAGUGGCAGGGGUGGGGGUUGCUAAGGAAAGGGUGGGAUGGGAGUAAAUAAAGAGUU | 1.76
CCUCAAGUCCUGUGCUACACAUCGUAUGUACCGAAUCGGAGGGAGGGGAGGGAAAGUAUUAUGUUACGCCGUUCGGAUCUGCACUUCCAG | 0.474
UUACAGAUGUAGAGCUAAAACGACUGAAGGAUGCUUUCAAGAGGACCUGUGGACUCUCAUAUUACAUGGGCCAGCACUGCUUCAUCCGGG | -0.137

Sample 2 — technique: RNA Bind-n-Seq; form: RNA; sample: in vitro; concentration: 365 nM; baseline: no-protein control; direction: higher = stronger binding
Target: RNA binding protein fox-1 homolog 2, RRM domain, GST-SBP tag (RBFOX2, Homo sapiens, UniProt O43251-10, residues 100-194)
Notes: natural RNA segment, single round, ends assumed
Shared flanks, not repeated: GGGAGUUCUACAGUCCGACGAUC … UGGAAUUCUCGGGUGCCAA
Target sequence (chain): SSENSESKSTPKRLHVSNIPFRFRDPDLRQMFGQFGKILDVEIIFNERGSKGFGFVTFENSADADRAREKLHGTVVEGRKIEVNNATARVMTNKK
Sequence | RBNS enrichment (R)
UGUCUUCUGUUGUAUUAACUUCUUUCCUUUGUGGUAUCUUGUAUCCUGUUUUAAAAACUAAAUGAAGGGAACCACAUUAGGGCCCAUGCCAGCAUCCCAGUGAAGUUCGU | 0.222
AAUACAAAAAUUAGCUGGGCAUGGUGGCAUGCGCCUGUAGUCUCAGCUACCUGGGAGGCUGAGGAAGGAGGAUCGCUUGAGCCCAGGAGGUGGAGGCUGCAGUGAGCCAA | 8.03
UACAGAGGGCUUGGUUUGAAGUUGGGGUGAGAUGAAACCUUUGCUCUGAGCCAAAGCUCUGGGGCCUUGCAUUCCCUGCAUUGGGUUGAUGACUGUCAGCAUCACUGCCG | 0.283
AUGGUAGGCUGUAUAGUUUUUAGUCUGUGUAGUUAAUUUAAUUUGCAGUUUGUGCGGCAGAUUGCUCUGCCAAGAUACUUGAACACUGUGUUUUAUUGUGGUAAUUAUGU | 0.608
GCCAUGCUUGCCUAAGACCUCGUUCUGUUCUCCCAUAAGGCCGUCCUUCCCACAGUACCUUAAGAUUGCCCAGCCUCCCUGCUCUAGUGGCUGGGGCUCCCUUACCAGAG | 2.28
AUGGUCUUGCCCCAGCUGGCCCUGGCACAGGAGUUCUCUUACCUGGCUGGUGAGUGGCCUGUGUUAGUCUUGUGAGGACCUCGAGGAACCUAAAAGCUCAGAUGCACUUA | 0.398
UCCCCCAGCCAGGUCCCCACCAGGCCUGUCUCCCAGCGUUUGUCUAAUAAACGCACCCCUCCUAAAAACGCCUACGAAAACAGCUCCUCUCCUGGCACAUCUGCCAACAC | 0.659
CAGUAGUCCUCAGCAAUUCUCCAAGUUUCUCUCUUUGCCUAAAAUGGUCAUAGAUCUUGAUUUCUCUGAAUCGUGAUGACCACACCCAGUCAUCUUCACAGCAUAAUUGC | 0.646

Sample 3 — technique: protein binding microarray; form: double-stranded DNA, one strand shown; sample: in vitro; concentration: not given; baseline: not given; direction: higher = stronger binding
Target: Histone acetyltransferase KAT6A, both winged helices, GST fusion (KAT6A, Homo sapiens, UniProt Q92794, residues 1-181)
Notes: 8-mer, flanks averaged, mean of 2 arrays, mostly near background
Residues (chain): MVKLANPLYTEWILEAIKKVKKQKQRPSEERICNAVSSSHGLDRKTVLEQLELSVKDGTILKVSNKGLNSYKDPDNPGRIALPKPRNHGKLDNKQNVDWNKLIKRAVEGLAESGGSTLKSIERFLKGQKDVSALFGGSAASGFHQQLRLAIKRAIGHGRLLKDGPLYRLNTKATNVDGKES
Sequence | E-score
ATAAATAA | 0.0551
CTTGAGCC | -0.162
CGGCTATC | 0.275
AAAAGTTT | -0.0477
GGCCAAAA | -0.0228
AAACCGGG | 0.148
CATAAAAC | 0.057
ATGGTCTC | -0.051

Sample 4 — observed: enzyme activity; action: inhibitor; concentration: 20 µM
Target: Replicase polyprotein 1ab, polymerase (rep, Severe acute respiratory syndrome coronavirus 2, UniProt P0DTD1)
SMILES | inhibition [%]
O=C(c1ccc(Nc2nccc(-c3cc4ccccc4s3)n2)cc1)N1CCC(N2CCCC2)CC1 | 15
CC(C)(C)OC(=O)c1ncn2c1[C@@H]1CCCN1C(=O)c1c(Br)cccc1-2 | -4.42
COc1nc(C)cnc1NS(=O)(=O)c1cccnc1-c1ccc(-c2nnco2)cc1 | -1.88
C=CCN(C)CCCCCCOc1ccc(C(=O)c2ccc(Br)cc2)c(F)c1 | -5.49
O=C(O)CCCCCCCC(=O)O | -2.08
Cc1c(NC(=O)c2cc3c(s2)CCCC3)cccc1-c1cn(C)c(=O)c(Nc2ccc([C@@H]3C(=O)N(C)CCN3C)cc2)n1 (racemic) | -2.14
CN(C)c1ccc(C(=O)NCCCCCCC(=O)NO)cc1 | 1.28
COc1cc(Nc2ncc3c(n2)-c2ccc(Cl)cc2C(c2c(F)cccc2OC)=NC3)ccc1C(=O)O | 3.84
CC1(C)OC(=O)C(OCC2CC2)=C1c1ccc(S(C)(=O)=O)cc1 | -7.28
CC(C)Oc1ccc2c(=O)c(-c3ccccc3)coc2c1 | 7.35
O=C(Nc1ccc(O)cc1)c1ccccc1O | 2.94
C/C=C(/C(=C/C)c1ccc(O)cc1)c1ccc(O)cc1 | -5.53
O=c1[nH]ccc2cc(OC3CCNCC3)ccc12 | -4.58
C[C@@H](Oc1ccc2[nH]nc(/C=C/c3cnn(CCO)c3)c2c1)c1c(Cl)cncc1Cl | -6.22
CCC[C@H](NC(=O)[C@@H]1[C@H]2CCC[C@H]2CN1C(=O)[C@@H](NC(=O)[C@@H](NC(=O)c1cnccn1)C1CCCCC1)C(C)(C)C)C(=O)C(=O)NC1CC1 | -1.81
Cc1cc(C)c2c(c1)[C@@H](N(Cc1cc(C(F)(F)F)cc(C(F)(F)F)c1)c1nnn(C)n1)CCCN2C[C@H]1CC[C@H](C(=O)O)CC1 | -0.94
Cc1cc(/C=C/C#N)cc(C)c1Nc1ccnc(Nc2ccc(C#N)cc2)n1 | 1.14
O=C1c2c(O)cc(O)cc2O[C@H](c2ccc(O)c(O)c2)[C@H]1O | -0.99
Cc1c(N2C(=O)[C@@H]3[C@H](O)CCN3C2=O)ccc(C#N)c1Cl | -8.14
CN(C)c1cccc(Oc2cnc(Nc3cccc(O)c3)nc2)c1 | -2.64
CCOc1cc([C@@H](CS(C)(=O)=O)N2C(=O)c3cccc(NC(C)=O)c3C2=O)ccc1OC | 0.36
CNC(=O)COC(=O)NCCC1CCN(c2cccc(C)n2)CC1 | -1.33
COCCOC(=O)C1=C(C)NC(C)=C(C(=O)OC/C=C/c2ccccc2)C1c1cccc([N+](=O)[O-])c1 (centres unmarked) | -1.4
C[C@@H]1CC[C@@]2(OC1)O[C@H]1C[C@H]3[C@@H]4CC=C5C[C@@H](O[C@@H]6O[C@H](CO)[C@@H](O[C@@H]7O[C@@H](C)[C@H](O)[C@@H](O)[C@H]7O)[C@H](O)[C@H]6O[C@@H]6O[C@@H](C)[C@H](O)[C@@H](O)[C@H]6O)CC[C@]5(C)[C@H]4CC[C@]3(C)[C@H]1[C@@H]2C | -4.6
CC(C)(C)C(=O)C(=Nc1ccc(Cl)cc1)NNc1ccc(Cl)cc1 | -5.19

Further values, each from its own experiment
Structure (SMILES) | target or system | test | system | conditions | how to read | quantity | result
O=C(O)C(=O)CBr | SARS-CoV-2 | cytopathic effect | Vero E6 | 10 µM | – | inhibition | 4.7%
O=C([O-])CN(CCN(CC(=O)[O-])CC(=O)O)CC(=O)[O-].[Na+].[Na+].[Na+] | Vesicular stomatitis virus | pseudovirus infection | – | concentration not given, SARS-CoV-2 spike pseudotype | – | GFP signal | 83.1%
CC[n+]1c(-c2ccccc2)c2cc(N)ccc2c2ccc(N)cc21 | SARS-CoV-2 | cytopathic effect | Vero E6 | 10 µM | – | inhibition | 12.4%
CCCCc1oc2ccc(NS(C)(=O)=O)cc2c1C(=O)c1ccc(OCCCN(CCCC)CCCC)cc1 | HEK-293T | pseudovirus infection, FDA-approved drug library screen | VSV pseudotyped with SARS-CoV-2 spike | 10 µM, 16 h | baseline: vehicle-treated | GFP-positive cells | 10.9%

A few entries again (sample 4):
SMILES | inhibition [%]
O=C1c2c(O)cc(O)cc2O[C@H](c2ccc(O)c(O)c2)[C@H]1O | -0.99
Cc1c(N2C(=O)[C@@H]3[C@H](O)CCN3C2=O)ccc(C#N)c1Cl | -8.14
CN(C)c1cccc(Oc2cnc(Nc3cccc(O)c3)nc2)c1 | -2.64
CCOc1cc([C@@H](CS(C)(=O)=O)N2C(=O)c3cccc(NC(C)=O)c3C2=O)ccc1OC | 0.36
CNC(=O)COC(=O)NCCC1CCN(c2cccc(C)n2)CC1 | -1.33
COCCOC(=O)C1=C(C)NC(C)=C(C(=O)OC/C=C/c2ccccc2)C1c1cccc([N+](=O)[O-])c1 (centres unmarked) | -1.4
C[C@@H]1CC[C@@]2(OC1)O[C@H]1C[C@H]3[C@@H]4CC=C5C[C@@H](O[C@@H]6O[C@H](CO)[C@@H](O[C@@H]7O[C@@H](C)[C@H](O)[C@@H](O)[C@H]7O)[C@H](O)[C@H]6O[C@@H]6O[C@@H](C)[C@H](O)[C@@H](O)[C@H]6O)CC[C@]5(C)[C@H]4CC[C@]3(C)[C@H]1[C@@H]2C | -4.6
